# Measured values from different studies.
# Every numbered part comes from another study and shows a few of its results, in no order. ± marks the error that the study gave.

# Study 1
# Target: Replicase polyprotein 1ab, main protease (rep, Severe acute respiratory syndrome coronavirus 2, UniProt P0DTD1)
# Effect on: enzyme activity
# Mode: inhibitor
# Concentration: 20 µM
# Setting: hit confirmation, no DTT
SMILES,inhibition [%]
Nc1ccc2cc3ccc(N)cc3nc2c1,76.5
O=C(C=Cc1ccc(O)c2c1C(C(=O)OC(Cc1ccc(O)c(O)c1)C(=O)O)C(c1ccc(O)c(O)c1)O2)OC(Cc1ccc(O)c(O)c1)C(=O)O (stereo not shown),88
c1ccc2sc(SN3CCOCC3)nc2c1,99.8

# Study 2
# Target: Replicase polyprotein 1ab, nsp13 helicase (rep, Severe acute respiratory syndrome coronavirus 2, UniProt P0DTD1)
# Mode: inhibitor
# Concentration: 20 µM
Compound,inhibition [%]
COC(=O)C1=C(C)NC(C)=C(C(=O)OC(C)(C)CN(C)CCC(c2ccccc2)c2ccccc2)C1c1cccc([N+](=O)[O-])c1 (stereo not shown),5.67
COc1cc(C(=O)N2CCC(N3CCN(C)CC3)CC2)ccc1Nc1ncc2c(n1)N(C)c1ccccc1C(=O)N2C,9.44
CC(COc1ccccc1)N(CCCl)Cc1ccccc1 (stereo not shown),18.9
NC(=O)[C@H]1CCS[C@@H]2C[C@]3(CCCN3C(=O)Cc3ccc(NC(=O)COc4ccc(Cl)cc4Cl)cc3)C(=O)N12,-6.51
CCCNS(=O)(=O)Nc1ncnc(OCCOc2ncc(Br)cn2)c1-c1ccc(Br)cc1,1.32
Oc1noc2c1CCNC2,-1.45
COc1ccc(S(=O)(=O)Nc2nc(-c3cccc([N+](=O)[O-])c3)cs2)cc1OC,9.68
CN(C(=O)c1ccc(F)cc1C(F)(F)F)C1CCN(c2nnc(-c3ccnn3C)c3ccccc23)CC1,1.09

# Other studies, line by line
Substance,tested on,test,system,conditions,how to read,measurement,value
TTVAAFHQECSLQSC,human CD4 T cells,AIM,peptide,,,responding donors,18%
CCOC(=O)[C@H]1O[C@@H]1C(=O)N[C@@H](CC(C)C)C(=O)NCCC(C)C,SARS-CoV-2,"viral replication, high-content imaging screen",,cell-based,,EC50,85.1 µM
CC[C@H](C)[C@H](NC(=O)[C@H](CC(C)C)NC(=O)[C@H](Cc1c[nH]c2ccccc12)NC(=O)[C@H](CCC(N)=O)NC(=O)[C@@H](NC(=O)[C@H](Cc1ccccc1)NC(=O)[C@H](C)NC(=O)[C@H](CCCCNC(=O)COCCOCCNC(=O)COCCOCCNC(=O)CC[C@H](NC(=O)CCCCCCCCCCCCCCCCCCC(=O)O)C(=O)O)NC(=O)[C@H](CCC(N)=O)NC(=O)[C@H](C)NC(=O)[C@@H](NC(=O)[C@H](CCCCN)NC(=O)[C@H](CC(=O)O)NC(=O)[C@H](CC(C)C)NC(=O)C(C)(C)NC(=O)[C@@H](NC(=O)[C@H](CO)NC(=O)[C@H](Cc1ccc(O)cc1)NC(=O)[C@H](CC(=O)O)NC(=O)[C@H](CO)NC(=O)[C@@H](NC(=O)[C@H](Cc1ccccc1)NC(=O)[C@@H](NC(=O)CNC(=O)[C@H](CCC(=O)O)NC(=O)C(C)(C)NC(=O)[C@@H](N)Cc1ccc(O)cc1)[C@@H](C)O)[C@@H](C)O)[C@@H](C)CC)[C@@H](C)CC)C(C)C)C(=O)N[C@@H](C)C(=O)NCC(=O)NCC(=O)N1CCC[C@H]1C(=O)N[C@@H](CO)C(=O)N[C@@H](CO)C(=O)NCC(=O)N[C@@H](C)C(=O)N1CCC[C@H]1C(=O)N1CCC[C@H]1C(=O)N1CCC[C@H]1C(=O)N[C@@H](CO)C(N)=O,,,"patients with type 2 diabetes, serum","5/5/10/10 mg escalating, baseline",,total ALT,30.7 ± 24.1 U/L
CC[C@H](C)C(=O)O[C@H]1C[C@H](O)C=C2C=C[C@H](C)[C@H](CC[C@@H](O)C[C@@H](O)CC(=O)O)[C@H]21,HEK-293T/ACE2,,,"10 µM, 16 h",reference: vehicle,viability,98.3%
CCCCCCC(C)(C)c1cc(O)c2c(c1)OC(C)(C)C1CCC(=O)CC21 (stereo not shown),SARS-CoV-2,"viral replication, GFP plate reader screen",,cell-based,,EC50,8.91 µM
